Experimental data collected from several papers.
Numbered parts are unrelated; each lists some results of a single study. Changes are numbered by the printed parent chain.
Chain of UniProt O15294 (whole entry, looked up): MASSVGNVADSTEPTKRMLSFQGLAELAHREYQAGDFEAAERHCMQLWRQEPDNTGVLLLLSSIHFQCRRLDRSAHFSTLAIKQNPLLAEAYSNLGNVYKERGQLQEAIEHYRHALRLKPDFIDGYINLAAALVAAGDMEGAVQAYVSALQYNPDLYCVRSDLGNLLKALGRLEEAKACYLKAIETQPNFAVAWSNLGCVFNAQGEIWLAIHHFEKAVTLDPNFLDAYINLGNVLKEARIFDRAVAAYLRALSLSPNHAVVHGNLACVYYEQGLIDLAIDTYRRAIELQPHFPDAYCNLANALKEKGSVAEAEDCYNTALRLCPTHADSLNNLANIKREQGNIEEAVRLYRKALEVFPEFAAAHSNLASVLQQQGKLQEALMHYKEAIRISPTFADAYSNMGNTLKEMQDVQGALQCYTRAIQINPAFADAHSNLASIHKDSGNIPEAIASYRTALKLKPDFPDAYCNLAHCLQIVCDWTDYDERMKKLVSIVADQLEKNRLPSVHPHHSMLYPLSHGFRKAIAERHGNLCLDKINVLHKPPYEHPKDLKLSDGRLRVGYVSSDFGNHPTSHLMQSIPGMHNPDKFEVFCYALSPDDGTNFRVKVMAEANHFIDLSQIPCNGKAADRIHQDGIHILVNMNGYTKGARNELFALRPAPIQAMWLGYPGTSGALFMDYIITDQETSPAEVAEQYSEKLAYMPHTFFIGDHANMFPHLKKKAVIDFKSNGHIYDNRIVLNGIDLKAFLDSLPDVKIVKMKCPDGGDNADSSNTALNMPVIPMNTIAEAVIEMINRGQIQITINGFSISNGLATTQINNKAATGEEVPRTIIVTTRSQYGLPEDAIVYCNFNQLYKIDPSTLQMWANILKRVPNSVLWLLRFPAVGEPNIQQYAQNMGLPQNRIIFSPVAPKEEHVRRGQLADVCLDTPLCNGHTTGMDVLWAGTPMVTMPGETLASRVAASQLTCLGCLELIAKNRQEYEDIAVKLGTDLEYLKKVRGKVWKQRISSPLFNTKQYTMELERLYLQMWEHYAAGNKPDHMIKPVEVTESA

Set 1
Target: Probable WRKY transcription factor 33, C-terminal DNA-binding domain (WRKY33, Arabidopsis thaliana, UniProt Q8S8P5, residues 346-449)
Technique: DNA-protein interaction ELISA
Molecule type: double-stranded DNA, one strand shown
Sample: in vitro, bacterial lysate
Tested at: not given
Notes: whole dsDNA probe, crude lysate protein
Relative to: highest signal in screen
Direction: higher = stronger binding
Construct (chain): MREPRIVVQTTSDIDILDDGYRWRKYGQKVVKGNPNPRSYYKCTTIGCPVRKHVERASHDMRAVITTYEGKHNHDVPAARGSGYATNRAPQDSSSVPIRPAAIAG
| Sequence | relative absorbance |
| --- | --- |
| AAAAAATGAGAGAATTTCCGGTTCAGAAAA | 25.1 % of maximum |
| AAAAAACCGACCTGCACGTCGCTGCTAAAA | 40.8 % of maximum |
| AAAAAAGTTATTATACCTGATCTCGCAAAA | 33.4 % of maximum |
| AAAAAAGCATATCTTCAGAACTTGCCAAAA | 33.9 % of maximum |
| AAAAAAACGGTGTCATAGTATTAGTGAAAA | 57 % of maximum |
| AAAAAATATTCGCCGGTAGCCACGCTAAAA | 78.2 % of maximum |
| AAAAAATCCACGACTCAGCAGCTCTTAAAA | 51.1 % of maximum |
| AAAAAAACTATAGTCTTTGTCATGATAAAA | 34.3 % of maximum |

Set 2
Target: Sox-I, HMG box (Salpingoeca helianthica)
Technique: Spec-seq
Molecule type: double-stranded DNA, one strand shown
Sample: in vitro
Tested at: not given
Notes: whole probe, mean of replicates
Relative to: not given
Direction: lower = stronger binding
Shared flanks, not repeated: GAGTCGTCTCGTCAGCAC … CCGTAGAGCACTCAGGTC
Target sequence (chain): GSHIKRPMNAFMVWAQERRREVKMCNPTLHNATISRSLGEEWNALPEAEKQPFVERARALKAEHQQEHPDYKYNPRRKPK
| Sequence | relative binding energy [ln ratio] |
| --- | --- |
| AGTCGTT | 0.235 |
| CATAGCC | 0.511 |
| CATTTAA | 0.533 |
| CATCACA | 0.587 |
| AGTGGTT | 0.146 |
| CATCTCC | 1.11 |
| CATGACT | 0.595 |
| CATATGA | 0.831 |

Set 3
Target: CCNB3, cyclin fold, Cln2 fusion (human)
Technique: yeast growth competition, sequencing
Sample: yeast
Notes: strong parent motif
Relative to: not given
Direction: higher = stronger binding
Parent: TICRR docking peptide (human); TKVRRNLFNQELL; partner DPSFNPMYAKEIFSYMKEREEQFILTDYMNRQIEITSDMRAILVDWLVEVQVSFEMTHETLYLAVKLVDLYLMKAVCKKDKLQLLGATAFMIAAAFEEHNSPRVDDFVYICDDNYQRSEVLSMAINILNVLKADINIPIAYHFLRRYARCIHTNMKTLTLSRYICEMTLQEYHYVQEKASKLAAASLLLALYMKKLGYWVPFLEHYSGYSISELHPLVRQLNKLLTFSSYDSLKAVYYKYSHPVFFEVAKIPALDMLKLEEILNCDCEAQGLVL
| Variant | normalised enrichment score |
| --- | --- |
| R5K | 0.497 |
| E11A | 0.898 |
| V3A | -0.118 |
| R5A | 0.133 |
| L12A | 0.86 |
| F8L | 0.325 |
| R4A | 0.117 |
| T1A | 1.14 |

Mixed results
| Sequence | target | test | test system | setting | scale | quantity | value |
| --- | --- | --- | --- | --- | --- | --- | --- |
| EHYHMHDIMKNQHSH | UDP-N-acetylglucosamine--peptide N-acetylglucosaminyltransferase 110 kDa subunit (OGT, Homo sapiens, UniProt O15294) | binding, phage display NGS | peptide | panning round 2 | relative to: input library | minimum log2 enrichment ratio | 3.19 |

A few entries again (set 1):
| Sequence | relative absorbance |
| --- | --- |
| AAAAAATCCACGACTCAGCAGCTCTTAAAA | 51.1 % of maximum |
